Results from different studies.
A part holds a random share of what one study measured.
UniProt Q8NEV4, sequence (whole entry, looked up): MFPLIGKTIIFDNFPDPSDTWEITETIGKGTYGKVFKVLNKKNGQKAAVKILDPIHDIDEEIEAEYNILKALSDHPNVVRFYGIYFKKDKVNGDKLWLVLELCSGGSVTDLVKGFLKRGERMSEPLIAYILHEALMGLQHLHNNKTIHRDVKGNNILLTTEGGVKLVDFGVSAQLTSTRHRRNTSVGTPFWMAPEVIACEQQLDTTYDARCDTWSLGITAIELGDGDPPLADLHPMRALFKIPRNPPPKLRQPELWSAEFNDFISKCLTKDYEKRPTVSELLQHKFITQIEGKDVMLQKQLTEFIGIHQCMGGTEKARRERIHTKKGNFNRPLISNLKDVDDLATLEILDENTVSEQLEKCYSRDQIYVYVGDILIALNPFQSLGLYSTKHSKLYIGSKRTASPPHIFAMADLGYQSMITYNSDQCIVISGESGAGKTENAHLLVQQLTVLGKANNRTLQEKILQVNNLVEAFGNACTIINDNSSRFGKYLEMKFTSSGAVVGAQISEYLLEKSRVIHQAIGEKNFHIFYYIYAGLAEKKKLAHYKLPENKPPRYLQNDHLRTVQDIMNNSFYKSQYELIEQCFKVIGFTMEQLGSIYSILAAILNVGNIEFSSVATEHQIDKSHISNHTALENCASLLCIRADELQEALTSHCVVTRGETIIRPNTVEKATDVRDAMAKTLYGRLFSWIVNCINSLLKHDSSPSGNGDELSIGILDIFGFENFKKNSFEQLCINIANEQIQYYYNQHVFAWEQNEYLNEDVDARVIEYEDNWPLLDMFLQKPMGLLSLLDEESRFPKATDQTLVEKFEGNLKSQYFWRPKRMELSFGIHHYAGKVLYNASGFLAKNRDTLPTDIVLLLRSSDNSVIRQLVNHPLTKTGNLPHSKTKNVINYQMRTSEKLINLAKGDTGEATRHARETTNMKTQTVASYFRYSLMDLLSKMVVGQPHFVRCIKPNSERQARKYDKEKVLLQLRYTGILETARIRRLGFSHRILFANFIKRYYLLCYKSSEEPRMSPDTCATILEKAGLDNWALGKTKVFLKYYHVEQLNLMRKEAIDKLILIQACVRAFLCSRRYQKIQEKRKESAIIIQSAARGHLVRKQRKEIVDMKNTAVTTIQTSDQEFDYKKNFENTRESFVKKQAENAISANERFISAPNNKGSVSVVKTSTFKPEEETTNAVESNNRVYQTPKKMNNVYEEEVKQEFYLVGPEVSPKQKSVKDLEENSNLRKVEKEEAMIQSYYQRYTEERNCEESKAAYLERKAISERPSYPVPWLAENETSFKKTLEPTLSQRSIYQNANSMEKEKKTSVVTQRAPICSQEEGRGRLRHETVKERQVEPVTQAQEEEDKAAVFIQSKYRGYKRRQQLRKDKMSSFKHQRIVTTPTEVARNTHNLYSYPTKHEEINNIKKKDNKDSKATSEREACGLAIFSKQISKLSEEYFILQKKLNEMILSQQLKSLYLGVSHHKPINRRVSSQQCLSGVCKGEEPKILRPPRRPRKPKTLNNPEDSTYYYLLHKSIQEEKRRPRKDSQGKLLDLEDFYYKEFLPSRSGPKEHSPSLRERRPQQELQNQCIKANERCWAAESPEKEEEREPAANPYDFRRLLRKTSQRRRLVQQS
UniProt P06241, sequence (whole entry, looked up): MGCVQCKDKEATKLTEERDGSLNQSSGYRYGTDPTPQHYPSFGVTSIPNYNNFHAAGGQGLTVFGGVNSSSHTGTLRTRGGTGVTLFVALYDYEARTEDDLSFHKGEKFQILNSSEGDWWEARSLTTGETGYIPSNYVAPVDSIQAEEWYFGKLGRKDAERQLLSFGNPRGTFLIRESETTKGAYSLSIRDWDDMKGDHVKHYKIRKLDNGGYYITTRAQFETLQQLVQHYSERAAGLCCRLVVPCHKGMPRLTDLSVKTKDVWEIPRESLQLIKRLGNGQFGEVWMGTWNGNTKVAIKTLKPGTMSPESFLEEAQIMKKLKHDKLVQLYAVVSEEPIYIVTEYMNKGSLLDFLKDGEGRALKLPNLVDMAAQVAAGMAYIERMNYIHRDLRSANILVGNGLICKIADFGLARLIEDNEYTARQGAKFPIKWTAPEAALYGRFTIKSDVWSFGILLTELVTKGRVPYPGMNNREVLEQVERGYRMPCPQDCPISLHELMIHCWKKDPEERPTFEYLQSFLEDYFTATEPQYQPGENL
UniProt Q00526, sequence (whole entry, looked up): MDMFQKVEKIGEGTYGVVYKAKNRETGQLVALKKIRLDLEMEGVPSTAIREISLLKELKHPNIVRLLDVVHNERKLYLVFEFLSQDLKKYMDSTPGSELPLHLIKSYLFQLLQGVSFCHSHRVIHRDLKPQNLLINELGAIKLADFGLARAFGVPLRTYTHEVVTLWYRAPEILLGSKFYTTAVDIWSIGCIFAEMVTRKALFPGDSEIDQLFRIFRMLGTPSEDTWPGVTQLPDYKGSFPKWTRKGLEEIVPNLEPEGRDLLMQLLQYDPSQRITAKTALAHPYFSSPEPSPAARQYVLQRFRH
UniProt O00506, sequence (whole entry, looked up): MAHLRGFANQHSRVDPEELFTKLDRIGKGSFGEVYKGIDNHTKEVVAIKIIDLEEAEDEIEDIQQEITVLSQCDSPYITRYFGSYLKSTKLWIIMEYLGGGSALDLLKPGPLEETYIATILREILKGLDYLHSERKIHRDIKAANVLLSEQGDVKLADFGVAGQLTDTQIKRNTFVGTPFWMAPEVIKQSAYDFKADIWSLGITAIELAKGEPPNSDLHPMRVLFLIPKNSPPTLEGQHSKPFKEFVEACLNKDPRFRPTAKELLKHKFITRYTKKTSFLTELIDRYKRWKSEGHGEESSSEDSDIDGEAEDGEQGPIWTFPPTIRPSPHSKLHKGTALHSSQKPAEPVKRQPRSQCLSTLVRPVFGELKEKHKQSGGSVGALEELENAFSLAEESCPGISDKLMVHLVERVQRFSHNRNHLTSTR
UniProt P37173, sequence (whole entry, looked up): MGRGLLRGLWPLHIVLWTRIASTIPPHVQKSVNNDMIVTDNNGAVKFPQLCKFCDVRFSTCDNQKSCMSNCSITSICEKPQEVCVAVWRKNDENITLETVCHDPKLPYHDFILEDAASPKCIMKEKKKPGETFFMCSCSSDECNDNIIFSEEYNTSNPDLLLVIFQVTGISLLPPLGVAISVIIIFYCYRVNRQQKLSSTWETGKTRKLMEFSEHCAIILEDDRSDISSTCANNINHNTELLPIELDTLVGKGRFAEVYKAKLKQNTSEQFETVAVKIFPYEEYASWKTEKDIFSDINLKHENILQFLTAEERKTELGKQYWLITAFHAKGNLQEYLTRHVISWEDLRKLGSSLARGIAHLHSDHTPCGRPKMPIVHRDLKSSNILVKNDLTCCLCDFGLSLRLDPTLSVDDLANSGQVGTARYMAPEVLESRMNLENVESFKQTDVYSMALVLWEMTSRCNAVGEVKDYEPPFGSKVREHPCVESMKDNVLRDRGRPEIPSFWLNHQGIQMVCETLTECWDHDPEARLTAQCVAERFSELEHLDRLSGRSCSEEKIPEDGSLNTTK
UniProt P35626, sequence (whole entry, looked up): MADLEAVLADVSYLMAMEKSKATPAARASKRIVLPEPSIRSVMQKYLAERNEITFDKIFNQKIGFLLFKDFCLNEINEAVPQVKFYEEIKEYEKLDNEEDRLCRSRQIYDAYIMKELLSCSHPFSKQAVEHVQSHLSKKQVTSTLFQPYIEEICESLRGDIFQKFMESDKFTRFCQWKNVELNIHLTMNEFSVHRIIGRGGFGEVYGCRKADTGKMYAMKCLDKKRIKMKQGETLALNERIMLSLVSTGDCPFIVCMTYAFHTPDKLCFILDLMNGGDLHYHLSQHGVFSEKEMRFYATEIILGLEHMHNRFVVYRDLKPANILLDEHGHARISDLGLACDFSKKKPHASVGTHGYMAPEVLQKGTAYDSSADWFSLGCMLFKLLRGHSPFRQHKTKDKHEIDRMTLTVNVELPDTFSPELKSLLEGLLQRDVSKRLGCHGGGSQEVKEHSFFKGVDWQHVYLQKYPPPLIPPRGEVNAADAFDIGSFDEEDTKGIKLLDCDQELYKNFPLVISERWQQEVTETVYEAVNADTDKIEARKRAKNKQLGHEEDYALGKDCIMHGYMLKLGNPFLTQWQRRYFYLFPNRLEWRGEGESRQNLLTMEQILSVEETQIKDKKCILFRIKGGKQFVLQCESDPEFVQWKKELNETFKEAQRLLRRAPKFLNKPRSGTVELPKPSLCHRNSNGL

Set 1 — read-out: cell-free assay; technique: competition with immobilised ligand; tested at: 1 µM; endpoint: remaining binding
SMILES: O=C1NC(c2ccccn2)Sc2ccccc21 (stereo not shown)
FYN (Homo sapiens, UniProt P06241): 100%
GRK3 (Homo sapiens, UniProt P35626): 42%
FGFR3 (Homo sapiens, UniProt P22607, G697C): 100%
Myosin-IIIa (MYO3A, Homo sapiens, UniProt Q8NEV4): 85%
CDK16 (Homo sapiens, UniProt Q00536): 100%
TBK1 (Homo sapiens, UniProt Q9UHD2): 87%
MAPK9 (Homo sapiens, UniProt P45984): 100%
PIK3CA (Homo sapiens, UniProt P42336): 91%
PHKG1 (Homo sapiens, UniProt Q16816): 76%
CDK3 (Homo sapiens, UniProt Q00526): 100%
TGFBR2 (Homo sapiens, UniProt P37173): 85%
COQ8B (Homo sapiens, UniProt Q96D53): 67%
STK25 (Homo sapiens, UniProt O00506): 78%
MAPK15 (Homo sapiens, UniProt Q8TD08): 100%
MAP4K4 (Homo sapiens, UniProt O95819): 100%

Set 2 — technique: protein-binding microarray; form: hairpin DNA; medium: in vitro; tested at: not given; relative to: not given; direction: higher = stronger binding; endpoint: median fluorescence; shared flanks, not repeated: GAGGCCG … CGGCCTCACACTC
Target: Cyclic AMP-responsive element-binding protein 1, full length (CREB1, Homo sapiens, UniProt P16220, residues 1-327)
UniProt P16220, sequence (whole entry, looked up): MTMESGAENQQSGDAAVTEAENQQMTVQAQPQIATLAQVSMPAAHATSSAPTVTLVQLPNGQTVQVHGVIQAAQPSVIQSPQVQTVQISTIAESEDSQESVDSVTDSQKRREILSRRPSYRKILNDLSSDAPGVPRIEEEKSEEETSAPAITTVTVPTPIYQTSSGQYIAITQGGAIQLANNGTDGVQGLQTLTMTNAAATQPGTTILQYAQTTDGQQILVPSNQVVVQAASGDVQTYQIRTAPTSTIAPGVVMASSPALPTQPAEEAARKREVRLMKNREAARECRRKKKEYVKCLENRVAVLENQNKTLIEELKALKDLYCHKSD
Setting: whole hairpin DNA, median over replicate spots
ACGACCGCGTGCCTCCTGGCACGCGGTCGT (5mC at 9 13 15 29 31 35): 2790 a.u.
GCTCGCGTCAGCCTCCTGGCTGACGCGAGC (5mC at 11): 3430 a.u.
GATCACGTCAGCCTCCTGGCTGACGTGATC (5mC at 11): 4860 a.u.
GATGACCGCAGCCTCCTGGCTGCGGTCATC (5mC at 14): 2850 a.u.
GCTGACGTCGGCCTCCTGGCCGACGTCAGC (5mC at 16): 4110 a.u.
GAGGACGTCAGCCTCCTGGCTGACGTCCTC (5mC at 35): 4090 a.u.
ACAACGTCGTGCCTCCTGGCACGACGTTGT (5mC at 9 15 29): 4130 a.u.
GCTGCGGTCAGCCTCCTGGCTGACCGCAGC (5mC at 32): 2650 a.u.

Set 3 — read-out: enzyme activity; action: inhibitor; tested at: 0.5 µM; relative to: control; endpoint: remaining activity
Target: Protein-tyrosine kinase 6 (PTK6, Homo sapiens, UniProt Q13882)
UniProt Q13882, sequence (whole entry, looked up): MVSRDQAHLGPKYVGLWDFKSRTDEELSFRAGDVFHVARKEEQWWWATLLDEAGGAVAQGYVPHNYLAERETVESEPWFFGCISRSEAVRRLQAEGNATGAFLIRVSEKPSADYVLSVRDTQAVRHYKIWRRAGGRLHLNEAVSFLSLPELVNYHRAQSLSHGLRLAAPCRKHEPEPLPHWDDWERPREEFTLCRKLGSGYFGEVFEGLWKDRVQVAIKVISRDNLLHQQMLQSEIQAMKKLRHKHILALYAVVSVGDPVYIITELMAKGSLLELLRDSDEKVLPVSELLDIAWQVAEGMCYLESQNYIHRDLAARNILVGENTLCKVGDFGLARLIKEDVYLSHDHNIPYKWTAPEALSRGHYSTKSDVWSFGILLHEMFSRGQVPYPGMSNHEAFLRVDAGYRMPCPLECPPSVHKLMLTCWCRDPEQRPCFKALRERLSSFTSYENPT
O=C1NC(=O)c2c1c1c3ccccc3[nH]c1n1cncc21: 89%
Cc1ccc(S(=O)(=O)/C=C/C#N)cc1: 93.1%
O=C1Cc2c([nH]c3ccc(Br)cc23)-c2ccccc2N1: 87.7%
c1ccc2c(-c3ccncc3)c[nH]c2c1: 85.5%

Other studies, line by line — technique: cross-linking MS
NONO (Homo sapiens, UniProt Q15233) — cross-linked residues (ADGRG6 (Homo sapiens, UniProt Q86SQ4); cell fractions; with: DMTMM): E102 to K1006
PHGDH (Homo sapiens, UniProt O43175) — interaction screen (EPN1 (Homo sapiens, UniProt Q9Y6I3); hits only): cross-linked
TOMM20 (Homo sapiens, UniProt Q15388) — cross-linked residues (TRPM6 (Homo sapiens, UniProt Q9BX84); cell fractions; with: DSSO): K56 to S1697
BNIP1 (Homo sapiens, UniProt Q12981) — cross-linked residues (RINT1 (Homo sapiens, UniProt Q6NUQ1); cell fractions; with: DSSO): K111 to K502

Repeated from above (set 3):
O=C1NC(=O)c2c1c1c3ccccc3[nH]c1n1cncc21: 89%
Cc1ccc(S(=O)(=O)/C=C/C#N)cc1: 93.1%
O=C1Cc2c([nH]c3ccc(Br)cc23)-c2ccccc2N1: 87.7%
c1ccc2c(-c3ccncc3)c[nH]c2c1: 85.5%
